Published values pooled from the literature.
Organism: Mycobacterium tuberculosis

COc1cc(OC)cc(Oc2ccc(C(=O)NCc3c4c(c(C)[nH]c3=O)CCCC4)cc2)c1 — inhibition (microbial growth, resazurin; H37RV; 25 µg/mL): 64.3%
O=[N+]([O-])c1ccc(/C=N/Nc2nc(Nc3ccccc3)nc(N3CCOCC3)n2)o1 — IC50 (intracellular bacterial growth; J774.1 mouse macrophages, mc^26206): 1300 nM
CCN(CC)C(=O)C[C@H](NC(=O)CCc1ccccc1)C(=O)N[C@@H](Cc1ccc(F)cc1)C(=O)NCc1cccc2ccccc12 — CFU reduction (non-replicating bacteria; H37Rv; above twice Ki, 5 days, pH 5.5, with: 0.5 mM NaNO2): ≤ 1 log10 CFU
CCOC(=O)COc1ccc2ccc3oc([N+](=O)[O-])cc3c2c1 — MIC90 (H37Rv): 0.031 to 0.5 µg/mL
O=[N+]([O-])c1cc(C(F)(F)F)ccc1NCCc1c[nH]c2ccc(O)cc12 — MIC90 (growth in liquid medium; H37Rv; 5 days): 13 µM
CO[C@@H](C(=O)NC1Cc2ccccc2C1)[C@H](O)[C@@H](O)[C@H](O)/C=C/C(C)(C)C — inhibition (microbial growth, resazurin; ATCC27294 H37RV; 128 µM, 7 days): 29%
N#Cc1ccc2c(ccc3oc([N+](=O)[O-])cc32)c1 — MIC90 (H37Rv): 0.031 to 0.5 µg/mL
COc1ccc(NC(=O)c2nc(S(C)(=O)=O)ncc2Cl)cc1Cl — EC50 (growth inhibition; 144 h, pH 7.0): > 30 µM
COc1ccc(-c2ccc(C(=O)NCc3c4c(c(C)[nH]c3=O)CCCC4)cc2)cc1 — inhibition (microbial growth, resazurin; H37RV; 25 µg/mL): 98.3%
COc1ccc2ccc3oc([N+](=O)[O-])cc3c2c1Br — MIC90 (H37Rv): 0.031 to 0.5 µg/mL
COc1ccc(C(=O)NCc2c3c(c(C)[nH]c2=O)CCCC3)cc1 — inhibition (microbial growth, resazurin; H37RV; 25 µg/mL): 13.3%
O=[N+]([O-])c1cc2c(ccc3c2ccc2cc([N+](=O)[O-])oc23)o1 — MIC90 (H37Rv): 0.031 to 0.5 µg/mL
COc1cc(OC)cc(-c2ccc(C(=O)NCc3c4c(c(C)[nH]c3=O)CCCC4)cc2)c1 — inhibition (microbial growth, resazurin; H37RV; 25 µg/mL): 99.8%
C/C=C/C[C@@H]1NC(=O)[C@H](CC(C)C)N2C(=O)[C@H](C[C@@H](C)[C@H]2OCCCC)N(C)C(=O)[C@H](C)NC(=O)[C@H](Cc2ccc(O)c([N+](=O)[O-])c2)NC(=O)[C@H](CC(C)C)N(C)C(=O)[C@H](Cc2cn(C(C)(C)C(O)CCl)c3ccccc23)NC1=O (stereo partly drawn) — MIC90 (microbial growth, resazurin): 4.3 µM
O=[N+]([O-])c1ccc(/C=N/Nc2nc(Nc3ccccc3)nc(Nc3ccccc3)n2)o1 — IC50 (intracellular bacterial growth; J774.1 mouse macrophages, mc^26206): 270 nM

Some of these lines once more:
O=[N+]([O-])c1ccc(/C=N/Nc2nc(Nc3ccccc3)nc(Nc3ccccc3)n2)o1 — IC50 (intracellular bacterial growth; J774.1 mouse macrophages, mc^26206): 270 nM
O=[N+]([O-])c1ccc(/C=N/Nc2nc(Nc3ccccc3)nc(N3CCOCC3)n2)o1 — IC50 (intracellular bacterial growth; J774.1 mouse macrophages, mc^26206): 1300 nM
